Measurements pooled from the literature.
Protocols differ between the studies behind these lines. ± gives the spread as reported.
OPRK1: Kappa-type opioid receptor (OPRK1, Cavia porcellus, UniProt P41144)
Chain of UniProt P41144 (whole entry, looked up): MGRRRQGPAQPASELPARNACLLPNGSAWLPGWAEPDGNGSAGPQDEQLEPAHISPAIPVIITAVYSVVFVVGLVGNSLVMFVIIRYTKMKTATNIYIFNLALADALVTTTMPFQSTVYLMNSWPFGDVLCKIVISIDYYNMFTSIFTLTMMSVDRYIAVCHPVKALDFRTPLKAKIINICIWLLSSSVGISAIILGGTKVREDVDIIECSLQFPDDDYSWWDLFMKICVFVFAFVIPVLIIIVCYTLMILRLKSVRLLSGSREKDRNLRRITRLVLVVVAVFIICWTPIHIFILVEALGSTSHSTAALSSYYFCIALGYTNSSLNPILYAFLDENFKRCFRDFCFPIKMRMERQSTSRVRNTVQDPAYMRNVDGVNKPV
Oprd1: Delta-type opioid receptor (Oprd1, Rattus norvegicus, UniProt P33533)
Chain of UniProt P33533 (whole entry, looked up): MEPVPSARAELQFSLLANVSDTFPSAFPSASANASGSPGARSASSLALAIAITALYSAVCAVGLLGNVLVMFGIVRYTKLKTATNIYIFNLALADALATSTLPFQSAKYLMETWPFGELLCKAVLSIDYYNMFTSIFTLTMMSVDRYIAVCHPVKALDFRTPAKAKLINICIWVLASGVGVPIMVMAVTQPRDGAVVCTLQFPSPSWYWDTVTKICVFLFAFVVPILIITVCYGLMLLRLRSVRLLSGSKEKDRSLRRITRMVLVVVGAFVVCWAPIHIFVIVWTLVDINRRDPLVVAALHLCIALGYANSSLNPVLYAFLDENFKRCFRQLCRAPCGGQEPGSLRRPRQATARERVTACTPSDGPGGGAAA
CA1: Carbonic anhydrase 1 (CA1, Homo sapiens, UniProt P00915)
Chain of UniProt P00915 (whole entry, looked up): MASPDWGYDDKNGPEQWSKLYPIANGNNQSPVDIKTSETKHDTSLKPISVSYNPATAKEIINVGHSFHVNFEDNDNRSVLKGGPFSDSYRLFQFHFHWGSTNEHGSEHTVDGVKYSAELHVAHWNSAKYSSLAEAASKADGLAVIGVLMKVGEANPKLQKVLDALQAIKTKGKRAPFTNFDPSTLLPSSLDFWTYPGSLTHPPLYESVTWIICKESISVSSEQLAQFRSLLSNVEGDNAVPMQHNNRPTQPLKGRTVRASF
WDR5: WD repeat-containing protein 5 (WDR5, Homo sapiens, UniProt P61964)
DRD2 long isoform: D(2) dopamine receptor, long isoform (DRD2, Homo sapiens, UniProt P14416)
Chain of UniProt P14416 (whole entry, looked up): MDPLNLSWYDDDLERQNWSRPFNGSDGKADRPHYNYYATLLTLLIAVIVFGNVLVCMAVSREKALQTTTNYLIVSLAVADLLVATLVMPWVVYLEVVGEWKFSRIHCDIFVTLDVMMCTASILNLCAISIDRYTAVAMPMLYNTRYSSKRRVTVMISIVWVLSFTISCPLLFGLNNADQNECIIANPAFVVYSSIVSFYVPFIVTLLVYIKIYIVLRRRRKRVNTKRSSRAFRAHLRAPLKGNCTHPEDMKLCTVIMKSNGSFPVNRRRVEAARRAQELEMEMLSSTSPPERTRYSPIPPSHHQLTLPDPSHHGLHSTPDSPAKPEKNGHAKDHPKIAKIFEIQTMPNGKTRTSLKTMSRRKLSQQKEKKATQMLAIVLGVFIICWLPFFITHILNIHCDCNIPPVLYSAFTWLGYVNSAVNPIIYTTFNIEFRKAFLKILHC
OPRM1: Mu-type opioid receptor (OPRM1, Cavia porcellus, UniProt P97266)
Chain of UniProt P97266 (whole entry, looked up): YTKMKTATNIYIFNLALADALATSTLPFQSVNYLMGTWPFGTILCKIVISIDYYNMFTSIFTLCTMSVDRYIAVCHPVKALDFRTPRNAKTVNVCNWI
Chain of UniProt P06276 (whole entry, looked up): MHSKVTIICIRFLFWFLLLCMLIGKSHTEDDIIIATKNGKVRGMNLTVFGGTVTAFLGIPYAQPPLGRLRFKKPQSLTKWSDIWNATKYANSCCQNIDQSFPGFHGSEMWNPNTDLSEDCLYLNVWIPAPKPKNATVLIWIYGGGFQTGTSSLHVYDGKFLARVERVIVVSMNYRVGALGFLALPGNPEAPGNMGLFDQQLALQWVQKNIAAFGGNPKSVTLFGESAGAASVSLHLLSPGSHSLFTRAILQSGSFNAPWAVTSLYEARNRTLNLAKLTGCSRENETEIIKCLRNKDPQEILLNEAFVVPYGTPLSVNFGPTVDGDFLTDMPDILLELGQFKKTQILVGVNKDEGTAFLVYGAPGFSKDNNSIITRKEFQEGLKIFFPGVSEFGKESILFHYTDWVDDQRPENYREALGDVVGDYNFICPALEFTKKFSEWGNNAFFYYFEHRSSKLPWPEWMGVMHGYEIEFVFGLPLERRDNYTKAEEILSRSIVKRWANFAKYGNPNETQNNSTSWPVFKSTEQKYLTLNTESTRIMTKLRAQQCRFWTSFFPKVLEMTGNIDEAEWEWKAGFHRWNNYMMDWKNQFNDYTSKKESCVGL
Chain of UniProt P50406 (whole entry, looked up): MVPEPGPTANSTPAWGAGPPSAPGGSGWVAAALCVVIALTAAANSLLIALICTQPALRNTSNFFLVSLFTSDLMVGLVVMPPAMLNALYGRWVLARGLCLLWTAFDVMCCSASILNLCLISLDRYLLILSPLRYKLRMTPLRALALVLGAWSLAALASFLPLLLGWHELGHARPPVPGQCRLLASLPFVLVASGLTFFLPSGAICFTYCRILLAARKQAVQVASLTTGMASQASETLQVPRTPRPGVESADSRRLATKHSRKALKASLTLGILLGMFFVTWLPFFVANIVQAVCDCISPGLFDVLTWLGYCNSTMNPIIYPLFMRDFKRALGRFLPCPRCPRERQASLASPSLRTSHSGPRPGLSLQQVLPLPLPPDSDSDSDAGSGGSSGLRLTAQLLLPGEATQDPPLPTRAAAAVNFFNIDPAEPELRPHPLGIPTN
Chain of UniProt P08172 (whole entry, looked up): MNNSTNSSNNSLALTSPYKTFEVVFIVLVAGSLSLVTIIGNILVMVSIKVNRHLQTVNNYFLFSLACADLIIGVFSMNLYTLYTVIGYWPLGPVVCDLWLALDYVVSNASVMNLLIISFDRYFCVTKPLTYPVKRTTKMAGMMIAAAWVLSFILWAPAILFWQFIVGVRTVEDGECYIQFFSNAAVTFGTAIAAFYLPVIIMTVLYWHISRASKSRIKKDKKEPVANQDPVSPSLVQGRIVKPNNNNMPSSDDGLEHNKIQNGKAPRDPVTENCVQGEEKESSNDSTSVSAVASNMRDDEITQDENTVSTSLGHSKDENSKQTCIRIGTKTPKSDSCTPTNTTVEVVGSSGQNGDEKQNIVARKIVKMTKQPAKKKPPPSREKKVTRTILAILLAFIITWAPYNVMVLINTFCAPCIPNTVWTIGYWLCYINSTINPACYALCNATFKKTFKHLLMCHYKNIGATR
Chain of UniProt P28221 (whole entry, looked up): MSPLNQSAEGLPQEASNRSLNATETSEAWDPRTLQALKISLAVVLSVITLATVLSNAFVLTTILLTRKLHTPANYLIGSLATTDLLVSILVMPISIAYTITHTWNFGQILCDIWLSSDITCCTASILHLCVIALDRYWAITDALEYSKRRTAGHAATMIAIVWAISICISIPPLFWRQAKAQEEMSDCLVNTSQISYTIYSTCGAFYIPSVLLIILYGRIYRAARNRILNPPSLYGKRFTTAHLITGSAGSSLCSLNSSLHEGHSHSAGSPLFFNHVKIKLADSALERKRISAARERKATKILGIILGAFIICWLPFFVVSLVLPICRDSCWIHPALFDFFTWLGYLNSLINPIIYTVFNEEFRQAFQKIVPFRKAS
Chain of UniProt P08908 (whole entry, looked up): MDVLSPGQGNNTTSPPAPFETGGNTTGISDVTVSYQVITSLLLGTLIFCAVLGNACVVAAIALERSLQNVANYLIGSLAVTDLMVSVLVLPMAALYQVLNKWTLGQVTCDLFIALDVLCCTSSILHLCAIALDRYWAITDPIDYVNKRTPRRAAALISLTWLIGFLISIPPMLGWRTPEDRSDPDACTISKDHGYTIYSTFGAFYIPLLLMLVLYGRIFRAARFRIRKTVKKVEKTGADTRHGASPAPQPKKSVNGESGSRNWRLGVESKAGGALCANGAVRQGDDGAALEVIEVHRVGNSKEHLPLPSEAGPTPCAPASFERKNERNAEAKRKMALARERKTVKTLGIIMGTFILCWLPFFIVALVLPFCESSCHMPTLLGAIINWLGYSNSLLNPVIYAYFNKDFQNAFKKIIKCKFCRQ
Chain of UniProt P41143 (whole entry, unmodified, looked up): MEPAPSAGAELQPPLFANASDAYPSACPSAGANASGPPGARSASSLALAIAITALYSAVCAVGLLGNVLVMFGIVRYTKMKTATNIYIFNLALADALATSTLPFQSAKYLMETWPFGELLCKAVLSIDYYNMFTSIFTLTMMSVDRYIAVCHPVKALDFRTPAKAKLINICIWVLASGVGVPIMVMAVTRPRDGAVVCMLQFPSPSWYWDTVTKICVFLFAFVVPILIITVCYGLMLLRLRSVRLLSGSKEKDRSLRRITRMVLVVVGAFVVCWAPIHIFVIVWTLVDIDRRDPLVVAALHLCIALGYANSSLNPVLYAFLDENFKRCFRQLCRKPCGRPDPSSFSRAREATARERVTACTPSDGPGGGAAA
Chain of UniProt P62813 (whole entry, looked up): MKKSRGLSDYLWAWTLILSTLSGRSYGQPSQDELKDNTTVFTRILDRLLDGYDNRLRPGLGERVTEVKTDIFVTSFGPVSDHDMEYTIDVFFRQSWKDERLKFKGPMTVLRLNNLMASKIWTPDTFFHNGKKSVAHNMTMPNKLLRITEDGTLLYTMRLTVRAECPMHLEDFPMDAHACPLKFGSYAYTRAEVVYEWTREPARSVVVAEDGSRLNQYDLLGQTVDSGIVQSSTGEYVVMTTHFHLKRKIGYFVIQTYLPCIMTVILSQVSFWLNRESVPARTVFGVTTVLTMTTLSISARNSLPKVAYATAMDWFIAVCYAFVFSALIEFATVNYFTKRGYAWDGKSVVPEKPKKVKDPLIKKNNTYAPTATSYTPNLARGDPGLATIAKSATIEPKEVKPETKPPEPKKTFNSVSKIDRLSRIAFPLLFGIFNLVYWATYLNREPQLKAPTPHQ

Cc1cc(O)cc(C)c1C[C@H](N)C(=O)N[C@@H]1C/C=C/CC[C@@H](C(N)=O)NC(=O)[C@H](Cc2ccccc2)NC(=O)[C@H](Cc2ccccc2)NC1=O — Ki (OPRK1; ligand displacement, radioligand; cell membranes): 4.97 nM
CN(C)[C@H](CNC(=O)/C=C/c1cccc2ccccc12)Cc1ccc(O)cc1 — Ki (Muscarinic acetylcholine receptor M2 (CHRM2, Homo sapiens, UniProt P08172); cell-free assay): 6500 nM
Cc1cc(O)cc(C)c1C[C@H](N)C(=O)N[C@H](CCCNC(=N)N)C(=O)N[C@@H](Cc1ccccc1)C(=O)N[C@@H](CCCCN)C(=O)NCCNC(=O)[C@@H]1Cc2ccccc2CN1C(=O)[C@@H](N)Cc1c(C)cc(O)cc1C — Ki (Oprd1; ligand displacement, radioligand; cell membranes): 1.74 nM
N[C@H]1CCOC1=O — Ki (CA1; enzyme activity, inhibitor, stopped-flow): > 100000 nM
CC[C@@H]1NC(=O)[C@H](CCCNC(=N)N)NC(=O)[C@H](NC(=O)C(C)C)CCCCNC(=O)c2cc(F)c(c(F)c2)N=Nc2c(F)cc(cc2F)C(=O)NCCNC(=O)[C@@H](c2ccccc2)NC1=O — Ki (WDR5; binding, inhibitor, competitive fluorescence polarization; trans isomer, 405 nm photostationary state): 394 nM
COc1ccc(-n2nc3c4cc(Cl)ccc4[nH]cc-3c2=O)cc1 — Ki (Gabrg2/Gabra1, α1+/γ2− interface (Rattus norvegicus, UniProt P18508+P62813); rat cerebellar membranes; with: [3H]flunitrazepam): 0.018 ± 0.004 nM
O=S(=O)(N/N=C/c1ccc(OS(=O)(=O)c2ccc(Cl)cc2)cc1)c1ccc(Cl)cc1 — Ki (CA1; enzyme activity, inhibitor, absorbance): 370 nM
CC(C)CCCC(C)C1CCC2C3CCC4CC(OC5OC(C)C(OC6OC(C)C(OC7OC(C)C(OC8OC(C)C(OS(=O)(=O)O)C(OS(=O)(=O)O)C8OS(=O)(=O)O)C(OS(=O)(=O)O)C7OS(=O)(=O)O)C(OS(=O)(=O)O)C6OS(=O)(=O)O)C(OS(=O)(=O)O)C5OS(=O)(=O)O)CCC4(C)C3CCC12C (stereo not shown) — Ki (Heparanase (HPSE, Homo sapiens, UniProt Q9Y251); enzyme activity, inhibitor): 2.3 nM
COC1c2cc(C(C)C)c(O)c(O)c2C23CCCC(C)(C)C2C1OC3=O (stereo not shown) — Ki (Acetylcholinesterase (ACHE, Homo sapiens, UniProt P22303); enzyme activity, inhibitor): 7.58 nM
CCCCCn1ccc(C(=O)NC(C)(C)c2ccc(CNC(C)=O)cc2)n1 — Ki (Cannabinoid receptor 1 (CNR1, Homo sapiens, UniProt P21554); ligand displacement, radioligand): 1120 nM
O=S(=O)(N/N=C/c1ccc(OS(=O)(=O)c2cc(Cl)ccc2Cl)cc1)c1cc(Cl)ccc1Cl — Ki (CA1; enzyme activity, inhibitor, absorbance): 26.7 nM
COc1ccc2c(c1)c(CCN(C)C)cn2C(=O)c1ccccc1 — Ki (5-hydroxytryptamine receptor 1A (HTR1A, Homo sapiens, UniProt P08908); ligand displacement, radioligand; cell membranes): 686 nM
Cc1cc(O)cc(C)c1C[C@H](N)C(=O)N[C@H](CCCNC(=N)N)C(=O)N[C@@H](Cc1ccccc1)C(=O)N[C@@H](CCCCN)C(=O)NCCCCCCCCCCCCNC(=O)[C@H](Cc1ccccc1)NC(=O)[C@H](CC1CCCCC1)NC[C@@H]1Cc2ccccc2CN1C(=O)[C@@H](N)Cc1ccc(O)cc1 — Ki (Oprd1; ligand displacement, radioligand; cell membranes): 41.4 nM
NC(=O)[C@@H]1CCCCC[C@@H](NC(=O)[C@@H](N)Cc2ccc(O)cc2)C(=O)N[C@@H](Cc2ccccc2)C(=O)N[C@@H](Cc2ccccc2)C(=O)N1 — Ki (Oprd1; ligand displacement, radioligand; cell membranes): 2.24 nM
O=C1c2ccccc2CCCN1CCCCN1CCN(c2cccc(Cl)c2Cl)CC1 — Ki (5-hydroxytryptamine receptor 6 (HTR6, Homo sapiens, UniProt P50406); ligand displacement, radioligand): 669 nM
COc1ccc(S(=O)(=O)Oc2ccc(/C=N/NS(=O)(=O)c3ccc(Cl)cc3)cc2)cc1 — Ki (CA1; enzyme activity, inhibitor, absorbance): 84.2 nM
COc1ccc2c(c1)c(CCN(C)C)cn2Cc1ccccc1 — Ki (DRD2 long isoform; binding, radioligand displacement; HEK293 membranes; 1 h, 37 °C, with: [3H]-raclopride): 327 ± 58 nM
N=C(N)NCCC[C@H]1NC(=O)[C@@H](Cc2ccc(O)cc2)NC(=O)[C@H](CCCCN)NC(=O)[C@H](Cc2ccccc2)NC1=O — Ki (Oprd1; ligand displacement, radioligand; cell membranes): > 10000 nM
Cc1cc(O)cc(C)c1C[C@H](N)C(=O)N[C@H](CCCNC(=N)N)C(=O)N[C@@H](Cc1ccccc1)C(=O)N[C@@H](CCCCN)C(=O)N[C@@H]1CCCC[C@H]1NC(=O)[C@H](Cc1ccccc1)NC(=O)[C@H](CC1CCCCC1)NC[C@@H]1Cc2ccccc2CN1C(=O)[C@@H](N)Cc1ccc(O)cc1 — Ki (Oprd1; ligand displacement, radioligand; cell membranes): 95.2 nM
NC(=O)[C@@H]1CC/C=C/C[C@@H](NC(=O)[C@@H](N)Cc2ccc(O)cc2)C(=O)N[C@@H](Cc2ccccc2)C(=O)N[C@@H](Cc2ccccc2)C(=O)N1 — Ki (OPRK1; ligand displacement, radioligand; cell membranes): 15.2 nM
Cc1c(Cl)c(=O)oc2cc(OCCCCCC[Se]C#N)ccc12 — Ki (CA1; enzyme activity, inhibitor, stopped-flow): > 100000 nM
Cc1cc(O)cc(C)c1C[C@H](N)C(=O)N[C@H](CCCNC(=N)N)C(=O)N[C@@H](Cc1ccccc1)C(=O)N[C@@H](CCCCNC(=O)CN1CCN(CC(=O)O)CCN(CC(=O)O)CCN(CC(=O)O)CC1)C(N)=O — Ki (OPRM1; ligand displacement, radioligand; cell membranes): 0.068 nM
CC[C@@H]1NC(=O)[C@H](CCCNC(=N)N)NC(=O)[C@@H](C)NC(=O)c2cc(F)c(c(F)c2)N=Nc2c(F)cc(cc2F)C(=O)NCCNC(=O)[C@@H](Cc2ccccc2)NC1=O — Ki (WDR5; binding, inhibitor, competitive fluorescence polarization; cis isomer, 520 nm photostationary state): 1310 nM
Cc1cc(O)cc(C)c1C[C@H](N)C(=O)N[C@H](CCCNC(=N)N)C(=O)N[C@@H](Cc1ccccc1)C(=O)N[C@@H](CCCCN)C(=O)NCCCCCC(=O)N[C@@H](CCCCNC(=O)CN1CCN(CC(=O)O)CCN(CC(=O)O)CCN(CC(=O)O)CC1)C(N)=O — Ki (OPRM1; ligand displacement, radioligand; cell membranes): 0.25 nM
COc1ccc2c(c1)c(CCN(C)C)cn2S(=O)(=O)c1ccccc1 — Ki (DRD2 long isoform; binding, radioligand displacement; HEK293 membranes; 1 h, 37 °C, with: [3H]-raclopride): 352 ± 47 nM
COc1cc2c(cc1O)C(CCc1ccc(Cl)cc1)N(C)CC2 (stereo not shown) — Ki (5-hydroxytryptamine receptor 1D (HTR1D, Homo sapiens, UniProt P28221); cell-free assay, radioligand): 2700 nM
Cc1cc(O)cc(C)c1CCC(=O)N[C@@H]1CCCCC[C@@H](C(N)=O)NC(=O)[C@H](Cc2ccccc2)NC(=O)[C@H](Cc2ccccc2)NC1=O — Ki (OPRK1; ligand displacement, radioligand; cell membranes): > 500 nM
COc1ccccc1N1CCN(CCCCN2CCCc3ccccc3C2=O)CC1 — Ki (Alpha-1A adrenergic receptor (ADRA1A, Homo sapiens, UniProt P35348); ligand displacement, radioligand): 7.2 nM
O=S(=O)(F)c1cccc(S(=O)(=O)Nc2ccc(C3CC3)c(F)c2)c1 — Ki (GTPase KRas (KRAS, Homo sapiens, UniProt P01116); cell-free assay): 151000 nM
COc1c(C(C)C)cc2c(c1O)[C@@]1(C(=O)O)CCCC(C)(C)C1CC2 (stereo partly shown) — Ki (Cholinesterase (BCHE, Homo sapiens, UniProt P06276); enzyme activity, inhibitor, absorbance): 1.27 nM
Cc1cc(O)cc(C)c1C[C@H](N)C(=O)N[C@H](CCCNC(=N)N)C(=O)N[C@@H](Cc1ccccc1)C(=O)N(C)CC(=O)N(C)Cc1cc(C(F)(F)F)cc(C(F)(F)F)c1 — Ki (Delta-type opioid receptor (OPRD1, Homo sapiens, UniProt P41143, V217A)): 17.6 nM
CC[C@@H]1NC(=O)[C@H](CCCNC(=N)N)NC(=O)[C@H](NC(=O)C(C)C)CCNC(=O)c2cc(F)c(c(F)c2)N=Nc2c(F)cc(cc2F)C(=O)NCCNC(=O)[C@@H](c2ccccc2)NC1=O — Ki (WDR5; binding, inhibitor, competitive fluorescence polarization; cis isomer, 520 nm photostationary state): 8 nM
Cc1cc(O)cc(C)c1CCC(=O)N[C@@H]1C/C=C\CC[C@@H](C(N)=O)NC(=O)[C@H](Cc2ccccc2)NC(=O)[C@H](Cc2ccccc2)NC1=O — Ki (OPRK1; ligand displacement, radioligand; cell membranes): 266 nM
CC[C@@H]1NC(=O)[C@H](CCCNC(=N)N)NC(=O)[C@H](NC(=O)C(C)C)CCNC(=O)c2cc(F)c(c(F)c2)N=Nc2c(F)cc(cc2F)C(=O)NCCNC(=O)[C@@H](Cc2ccccc2)NC1=O — Ki (WDR5; fluorescence polarization competition; cis PSS 520 nm, before irradiation): 5.78 ± 1.59 nM
O=S(=O)(N/N=C/c1ccc(OS(=O)(=O)c2ccc(Br)cc2)cc1)c1ccc(Cl)cc1 — Ki (CA1; enzyme activity, inhibitor, absorbance): 16.7 nM
CC[C@@H]1NC(=O)[C@H](CCCNC(=N)N)NC(=O)[C@H](NC(=O)C(C)C)CNC(=O)c2cc(F)c(c(F)c2)N=Nc2c(F)cc(cc2F)C(=O)NCCNC(=O)[C@@H](Cc2ccccc2)NC1=O — Ki (WDR5; binding, inhibitor, competitive fluorescence polarization; cis isomer, 520 nm photostationary state): 104 nM
C[C@@H](Cc1ccsc1)NC(=O)NC[C@H](Cc1ccc(O)cc1)N(C)C — Ki (D(2) dopamine receptor (DRD2, Homo sapiens, UniProt P14416); cell-free assay): 25000 nM
